Assay results gathered from unrelated publications.
Parts stem from different laboratories: compare values within a part only. Changes are numbered by the printed parent chain.

Set 1
Target: Probable WRKY transcription factor 50, DNA-binding domain (WRKY50, Arabidopsis thaliana, UniProt Q8VWQ5, residues 99-173)
Technique: DNA-protein interaction ELISA
Form: double-stranded DNA, one strand shown
Medium: in vitro, bacterial lysate
Tested at: not given
Notes: whole dsDNA probe, crude lysate protein
Baseline: highest signal in screen
Reading: higher = stronger binding
Endpoint: relative absorbance
Residues (chain): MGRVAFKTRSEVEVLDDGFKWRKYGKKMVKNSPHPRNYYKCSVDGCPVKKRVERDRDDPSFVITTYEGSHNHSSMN
AAAAAACTGCTAATCGGTGACCCGATAAAA: 22.4 % of maximum
AAAAAATGAATCAATTTTTGGGCTTTAAAA: 17.2 % of maximum
AAAAAACTACCTCTACTCTAGCCTTAAAAA: 15.2 % of maximum
AAAAAACTAGGTATCGGTAGGCGCCGAAAA: 14.2 % of maximum
AAAAAATTACTCCTAGCCCTCATTCAAAAA: 42.1 % of maximum
AAAAAAAAGAGCCTGGGGGTTCGCATAAAA: 14.9 % of maximum
AAAAAATATATTTTCAGCTTTAATCTAAAA: 25.6 % of maximum
AAAAAAATTCGCAACCCTCACGTTCGAAAA: 16.9 % of maximum

Set 2
Target: PABPC1L2, full length, GST fusion (mouse, UniProt A0ABA7IW68)
Technique: RNAcompete
Form: RNA
Medium: in vitro
Tested at: 20 nM
Notes: 7-mer, probes averaged, single round
Baseline: mean of 7-mers
Reading: higher = stronger binding
Endpoint: 7-mer Z-score
Target sequence (chain): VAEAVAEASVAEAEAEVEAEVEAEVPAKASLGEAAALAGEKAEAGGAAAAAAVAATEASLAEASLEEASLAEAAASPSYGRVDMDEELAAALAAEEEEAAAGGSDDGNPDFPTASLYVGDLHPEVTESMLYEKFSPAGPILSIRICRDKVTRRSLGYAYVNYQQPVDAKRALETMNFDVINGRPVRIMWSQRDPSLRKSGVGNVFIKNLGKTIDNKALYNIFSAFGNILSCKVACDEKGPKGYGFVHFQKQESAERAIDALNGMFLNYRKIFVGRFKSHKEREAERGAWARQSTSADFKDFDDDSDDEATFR
GAUACGA: -0.108
GUUCGGG: -0.229
CAAUGGC: 0.102
AUAAAAG: 3.6
ACUCGCU: -0.28
CUCUGGA: -0.146
CUGAUUC: -0.271
GGUUGAC: 0.166

Set 3
Target: inorganic phosphate, free oxyanion
Technique: microfluidic competitive inhibition
Medium: in vitro, cell-free expressed
Tested at: not given
Notes: derived from inhibition constants, unchanged parent 615000 nM
Reading: lower = stronger binding
Endpoint: phosphate dissociation constant
Parent: PafA, mature enzyme, eGFP fusion (Elizabethkingia meningoseptica, UniProt Q9KJX5); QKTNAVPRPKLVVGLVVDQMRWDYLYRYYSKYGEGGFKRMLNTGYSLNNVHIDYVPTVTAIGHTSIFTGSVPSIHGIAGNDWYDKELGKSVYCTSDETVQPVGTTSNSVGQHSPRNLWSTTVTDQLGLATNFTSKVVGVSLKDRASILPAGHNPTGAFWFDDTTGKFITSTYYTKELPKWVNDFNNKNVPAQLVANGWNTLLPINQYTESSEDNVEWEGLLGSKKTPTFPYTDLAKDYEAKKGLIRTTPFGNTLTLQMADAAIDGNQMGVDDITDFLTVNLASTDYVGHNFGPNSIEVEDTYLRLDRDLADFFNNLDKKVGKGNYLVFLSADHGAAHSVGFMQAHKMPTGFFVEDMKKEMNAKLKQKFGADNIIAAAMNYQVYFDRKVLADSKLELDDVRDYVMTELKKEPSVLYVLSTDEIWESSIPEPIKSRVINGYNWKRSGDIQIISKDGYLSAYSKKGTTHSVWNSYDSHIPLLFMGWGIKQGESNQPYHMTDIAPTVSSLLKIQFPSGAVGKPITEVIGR
D23G: 304 µM
V122A: 561 µM
F368G: 589 µM
A370G: 581 µM
G288A: 515 µM

Set 4
Target: CCNA1, cyclin fold, Cln2 fusion (human)
Technique: yeast growth competition, sequencing
Medium: yeast
Notes: weak parent motif
Baseline: not given
Reading: higher = stronger binding
Endpoint: normalised enrichment score
Parent: viral docking peptide; PGASRRLFGSSAD; partner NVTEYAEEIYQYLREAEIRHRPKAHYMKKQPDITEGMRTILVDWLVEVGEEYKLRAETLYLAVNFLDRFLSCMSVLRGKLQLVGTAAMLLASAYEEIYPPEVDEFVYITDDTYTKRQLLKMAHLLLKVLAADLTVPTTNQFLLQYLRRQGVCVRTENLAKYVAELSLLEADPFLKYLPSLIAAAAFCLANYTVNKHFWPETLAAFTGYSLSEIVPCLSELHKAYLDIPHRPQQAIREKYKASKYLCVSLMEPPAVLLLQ
PAASRRLFGSSAD [G2A]: 0.451
PGASARLFGSSAD [R5A]: 0.236
PGASKRLLGSSAD [R5K F8L]: 0.168
PGASRALFGSSAD [R6A]: -0.0317
PGASARAFGSSAD [R5A L7A]: 0.098
PGASRRAFGSSAD [L7A]: 0.244
PGASRRLLGSSAD [F8L]: 0.0183
PGASRRLFGASAD [S10A]: 0.0819
PGASRRLFGSSAA [D13A]: 0.405

Some of these lines once more (set 4):
PAASRRLFGSSAD [G2A]: 0.451
PGASARLFGSSAD [R5A]: 0.236
